Results collected from several papers.
Compare with care: the assays were run in different laboratories. ± gives the spread as reported.

Compound = COc1cccc(OCCCN)c1-c1cc(Nc2cnc(C#N)cn2)n[nH]1; assay = noncompartmental analysis; system = human, plasma; conditions = IV infusion, 105 mg/m^2 over 1 h, cycle 1 day 1, geometric mean; terminal half-life = 21.7 h
Compound = CC(C)[C@](O)(c1ccc2cc(OC(F)F)c(OC(F)F)cc2c1)c1c[nH]nn1; assay = noncompartmental analysis; system = human patients, plasma; conditions = oral, dose not given; terminal half-life = 6.6 h
Compound = CC[C@H](C)[C@H](NC(=O)[C@H](CC(C)C)NC(=O)[C@H](Cc1c[nH]c2ccccc12)NC(=O)[C@H](C)NC(=O)[C@@H](NC(=O)[C@H](Cc1ccccc1)NC(=O)[C@H](CC(=O)O)NC(=O)[C@H](CCCNC(=N)N)NC(=O)[C@H](C)NC(=O)[C@H](C)NC(=O)[C@H](CC(C)C)NC(=O)[C@H](C)NC(=O)[C@H](CC(=O)O)NC(=O)[C@H](CC(C)C)NC(=O)[C@@H](NC(=O)[C@@H](NC(=O)[C@H](C)NC(=O)[C@H](CC(C)C)NC(=O)[C@H](CCC(=O)O)NC(=O)[C@H](CO)NC(=O)[C@H](CO)NC(=O)[C@H](Cc1ccccc1)NC(=O)[C@@H](NC(=O)CNC(=O)[C@H](CCC(=O)O)NC(=O)CNC(=O)[C@@H](N)Cc1cnc[nH]1)[C@@H](C)O)[C@@H](C)O)[C@@H](C)CC)[C@@H](C)CC)C(=O)N[C@@H](C)C(=O)N[C@H](C(=O)N[C@@H](CCCCN)C(=O)N[C@H](C(=O)N[C@H](C(=O)N[C@@H](CC(=O)O)C(=O)N[C@@H](CCCCN)C(=O)N[C@@H](CCCCN)C(=O)N[C@@H](CCCCN)C(=O)N[C@@H](CCCCN)C(=O)N[C@@H](CCCCN)C(=O)N[C@@H](CCCCN)C(N)=O)[C@@H](C)O)[C@@H](C)CC)[C@@H](C)O; assay = immunoaffinity LC-MS/MS; system = healthy human subjects, plasma; conditions = intravenous infusion, 1 mg single dose, infused over 15 min; terminal half-life = 11.7 h
Compound = C=C(C)[C@@H]1CC[C@]2(NCCN3CCS(=O)(=O)CC3)CC[C@]3(C)[C@H](CC[C@@H]4[C@@]5(C)CC=C(C6=CC[C@@](CF)(C(=O)O)CC6)C(C)(C)[C@@H]5CC[C@]43C)[C@@H]12; system = human; conditions = oral, 50 mg once daily, day 14, multiple ascending dose; terminal half-life = 24.8 h
Compound = CCOc1c([C@H](C)n2nc(C)c3c(N)ncnc32)cc(Cl)c(F)c1[C@@H]1CNC(=O)C1; system = healthy fasted humans, plasma; conditions = oral, 10 mg; terminal half-life = 13.2 ± 3.1 h
Compound = C#Cc1cccc(Nc2ncnc3cc(OCCOC)c(OCCOC)cc23)c1; system = human, plasma; conditions = oral, day 29, together with: dovitinib; terminal half-life = 5 ± 3 h
Compound = CC[C@@H]1C(=O)N(C)c2cnc(Nc3ccc(C(=O)N[C@H]4CC[C@H](N5CCN(CC6CC6)CC5)CC4)cc3OC)nc2N1C(C)C; system = human; conditions = intravenous infusion, 2 h infusion; terminal half-life = ~135 h
Compound = O=C1Nc2ccc(Cl)cc2[C@@](C#CC2CC2)(C(F)(F)F)O1; system = healthy human, serum; conditions = oral, 400 mg single dose; terminal half-life = 106 ± 49.3 h
Compound = C=CC(=O)Nc1cc(Nc2ncc(C(=O)OC(C)C)c(-c3cn(C)c4ccccc34)n2)c(OC)cc1N(C)CCN(C)C; system = human, fasted; conditions = oral, 80 mg single dose, arithmetic mean; terminal half-life = 14.8 h
Compound = COc1cc(Nc2ncc3c(n2)-c2ccc(Cl)cc2C(c2c(F)cccc2OC)=NC3)ccc1C(=O)O; system = human, plasma; conditions = oral, dose not given, multiple doses; terminal half-life = ~21 h
Compound = CN1CCN(c2cccc3c2CCN(C(=O)/C=C/c2c(-n4cnnn4)ccc(Cl)c2F)[C@@H]3C(=O)Nc2ccc(C(=O)O)cc2)C(=O)C1; system = human; conditions = intravenous infusion, 1 to 20 mg/h, 5 day infusion; terminal half-life = 6.22 to 8.65 h
Compound = CN(C)[C@@H](CCOc1cccc2ccccc12)c1ccccc1; system = healthy male humans, plasma; conditions = oral, 60 mg, together with: udenafil 200 mg; terminal half-life = 15.3 ± 5.11 h
Compound = Cn1c(=O)oc2ccc(-c3ccc(C[C@@H](C#N)NC(=O)[C@@H]4CNCCCO4)cc3)cc21; system = healthy male human, plasma; conditions = oral, repeated once daily; terminal half-life = 26 to 34 h
Compound = C[C@@H](Nc1cc(F)cc(F)c1)c1cc(C(=O)N(C)C)cc2c(=O)cc(N3CCOCC3)oc12; system = human, plasma; conditions = oral, single dose, geometric mean; terminal half-life = 2.1 to 6.2 h
Compound = O=C(Nc1nc2cccc(-c3ccc(CN4CCS(=O)(=O)CC4)cc3)n2n1)C1CC1; system = human male; conditions = oral, 100 mg twice daily, steady state, mean; terminal half-life = 5.87 h

Excerpt of the above:
Compound = CN(C)[C@@H](CCOc1cccc2ccccc12)c1ccccc1; system = healthy male humans, plasma; conditions = oral, 60 mg, together with: udenafil 200 mg; terminal half-life = 15.3 ± 5.11 h
Compound = Cn1c(=O)oc2ccc(-c3ccc(C[C@@H](C#N)NC(=O)[C@@H]4CNCCCO4)cc3)cc21; system = healthy male human, plasma; conditions = oral, repeated once daily; terminal half-life = 26 to 34 h
